Published values collected from several papers.
Lines come from different studies, so protocols differ. Values joined by “and” are separate records of one study, mostly repeats; a detail may differ. Numbers after ± are the reported error.
rep main protease: Replicase polyprotein 1ab, main protease (rep, Severe acute respiratory syndrome coronavirus 2, UniProt P0DTD1)
rep nsp12 RdRp: Replicase polyprotein 1ab, nsp12 RdRp (rep, Severe acute respiratory syndrome coronavirus 2, UniProt P0DTD1)
rep nsp13 helicase: Replicase polyprotein 1ab, nsp13 helicase (rep, Severe acute respiratory syndrome coronavirus 2, UniProt P0DTD1)
rep papain-like protease: Replicase polyprotein 1ab, papain-like protease (rep, Severe acute respiratory syndrome coronavirus 2, UniProt P0DTD1)
Spike glycoprotein: Spike glycoprotein (Severe acute respiratory syndrome coronavirus 2, UniProt P0DTC2)

O=C(O[C@@H]1Cc2c(O)cc(O)cc2O[C@@H]1c1ccc(O)c(O)c1)c1cc(O)c(O)c(O)c1
Ki (rep main protease; inactivator; 37 °C): 1810 nM

Nc1ncnc2c1c(I)cn2[C@@H]1O[C@H](CO)[C@@H](O)[C@H]1O
EC50 (rep nsp12 RdRp; RdRp activity, inhibitor; HEK293T; 24 h, added: nsp7 and nsp8): 750 nM

O=C1NN(c2ccccc2)C(=O)/C1=C/c1ccc(Sc2cccc3ccccc23)o1
IC50 (rep nsp13 helicase; helicase ATPase activity, inhibitor, Kinase-Glo luminescence; 60 min, added: 2.5 µM ATP): 3000 nM

CCC(C(=O)Nc1cc(NC2CCNC2)ccc1C)n1cc(Cl)cc2nc(SCc3ccc(F)cc3)nc1-2 (stereo not drawn)
Kd (rep papain-like protease; binding): 166 ± 13 nM

O=C(O)c1cc(O)c(O)c(O)c1
Kd (rep main protease; microscale thermophoresis; 63 min): 1140 nM

Cc1cccc(NC2=NC(=O)/C(=C/C=C/c3ccco3)S2)c1C
IC50 (rep nsp13 helicase; helicase ATPase activity, inhibitor, Kinase-Glo luminescence; 60 min, added: 2.5 µM ATP): 3000 nM

C=CS(=O)(=O)N(c1ccc(C(C)(C)C)cc1)C(C(=O)NC1CCCCC1)c1cccnc1 (stereo not drawn)
Ki (rep main protease; inhibitor, ITC, two-step reversible model): 4500 ± 300 nM

CCC(C(=O)Nc1ccccc1OC)n1c(SCc2ccc(F)cc2)nc2ncccc21 (stereo not drawn)
IC50 (rep papain-like protease; enzyme activity, inhibitor): 16600 nM

CO[C@H]1/C=C/O[C@@]2(C)Oc3c(C)c(O)c4c(O)c(c(/C=N/N5CCN(C)CC5)c(O)c4c3C2=O)NC(=O)/C(C)=C\C=C\[C@H](C)[C@H](O)[C@@H](C)[C@@H](O)[C@@H](C)[C@H](OC(C)=O)[C@@H]1C
Kd (Spike glycoprotein; binding, BLI): 117000 nM

Oc1c(Br)cc(Br)cc1/C=N/NC(=S)N[C@H]1CC2C=CC1C2 (stereo partly drawn)
IC50 (rep nsp13 helicase; helicase ATPase activity, inhibitor, Kinase-Glo luminescence; 60 min, added: 2.5 µM ATP): 6000 nM

Nc1nc(F)nc2c1ncn2[C@@H]1O[C@H](COP(=O)(O)O)[C@@H](O)[C@@H]1O
EC50 (rep nsp12 RdRp; RdRp activity, inhibitor; HEK293T; 24 h, added: nsp7 and nsp8): 930 nM

CC[C@H](NC(=O)OCc1ccccc1)C(=O)N[C@H](C(=O)N[C@@H](CC(C)C)C(=O)N(C)N(C#N)CCC(N)=O)C(C)(C)C
Ki (rep main protease; enzyme activity, inhibitor): 23.5 nM

CNC(=O)[C@@H](NC(=O)[C@H](CC(C)C)[C@H](O)C(=O)NO)C(C)(C)C
remaining activity (Daboia russelii venom proteases (SVMP); protease activity, inhibitor; AP population; 100 µM, added: azocasein substrate; baseline: venom alone): 0%

CCC(C(=O)Nc1cc(NC2CNC2)ccc1C)n1cc(Cl)cc2nc(SCc3ccc(F)cc3)nc1-2 (stereo not drawn)
Kd (rep papain-like protease; binding): 134 ± 12 nM

CC[C@H](C)[C@H](NC(=O)[C@H](CC(C)C)NC(=O)[C@H](Cc1c[nH]c2ccccc12)NC(=O)[C@H](CCC(N)=O)NC(=O)[C@@H](NC(=O)[C@H](Cc1ccccc1)NC(=O)[C@H](C)NC(=O)[C@H](CCCCNC(=O)COCCOCCNC(=O)COCCOCCNC(=O)CC[C@H](NC(=O)CCCCCCCCCCCCCCCCCCC(=O)O)C(=O)O)NC(=O)[C@H](CCC(N)=O)NC(=O)[C@H](C)NC(=O)[C@@H](NC(=O)[C@H](CCCCN)NC(=O)[C@H](CC(=O)O)NC(=O)[C@H](CC(C)C)NC(=O)C(C)(C)NC(=O)[C@@H](NC(=O)[C@H](CO)NC(=O)[C@H](Cc1ccc(O)cc1)NC(=O)[C@H](CC(=O)O)NC(=O)[C@H](CO)NC(=O)[C@@H](NC(=O)[C@H](Cc1ccccc1)NC(=O)[C@@H](NC(=O)CNC(=O)[C@H](CCC(=O)O)NC(=O)C(C)(C)NC(=O)[C@@H](N)Cc1ccc(O)cc1)[C@@H](C)O)[C@@H](C)O)[C@@H](C)CC)[C@@H](C)CC)C(C)C)C(=O)N[C@@H](C)C(=O)NCC(=O)NCC(=O)N1CCC[C@H]1C(=O)N[C@@H](CO)C(=O)N[C@@H](CO)C(=O)NCC(=O)N[C@@H](C)C(=O)N1CCC[C@H]1C(=O)N1CCC[C@H]1C(=O)N1CCC[C@H]1C(=O)N[C@@H](CO)C(N)=O
subjects with adverse event (refers to: treatment-emergent upper respiratory tract infection; healthy subjects; 0.5 mg, multiple ascending dose): 16.7%

C=CS(=O)(=O)N(c1ccc(C(C)(C)C)cc1)C(C(=O)NCCc1cccc(Cl)c1)c1cccnc1 (stereo not drawn)
Ki (rep main protease; inhibitor, ITC, two-step reversible model): 2300 ± 300 nM

Cc1ccc(C2CC(=O)N3CN(c4ccc(Br)cc4)CSC3=C2C#N)o1 (stereo not drawn)
IC50 (rep nsp13 helicase; helicase ATPase activity, inhibitor, Kinase-Glo luminescence; 60 min, added: 2.5 µM ATP): 66000 nM

Cn1cnc(Cn2c(=O)[nH]/c(=N\c3cc4cn(C)nc4cc3Cl)n(Cc3cc(F)c(F)cc3F)c2=O)n1
patients with adverse event (human, all renal function groups; oral, 375 mg, decreased GFR TEAE, Severe severity): 0%

Nc1ncnc2c([C@@H]3N[C@H](CO)[C@@H](O)[C@H]3O)c[nH]c12
inhibition (Middle East respiratory syndrome-related coronavirus; viral replication; Vero C1008, Jordan N3; 12.5 µM): 9.5%

Nc1nc2c(ncn2[C@H]2C[C@H](O)[C@@H](CO)O2)c(=S)[nH]1
EC50 (rep nsp12 RdRp; RdRp activity, inhibitor; HEK293T; 24 h, added: nsp7 and nsp8): 1080 nM

CC(C)(C)c1ccc(N(Cc2cc(Cl)cs2)C(=O)Cc2cncc3ccccc23)cc1
Ki (rep main protease; enzyme activity, inhibitor): 1900 nM

Cc1ccc(C)n1NC1=NC(=O)CS1
IC50 (rep nsp13 helicase; helicase ATPase activity, inhibitor, Kinase-Glo luminescence): > 150000 nM

CCC(C(=O)Nc1cc(NC2CCOC2)ccc1C)n1cc(Br)cc2nc(SCc3ccc(F)cc3)nc1-2 (stereo not drawn)
Kd (rep papain-like protease; binding): 1460 ± 117 nM

Nc1nc(F)nc2c1ncn2[C@@H]1O[C@H](CO)[C@@H](O)[C@@H]1O
EC50 (Replicase polyprotein 1ab, nsp12 with nsp14/nsp10 (rep, Severe acute respiratory syndrome coronavirus 2, UniProt P0DTD1); RdRp activity, inhibitor, CoV-RdRp-Gluc reporter; HEK293T, SARS-CoV-2; with proofreading, added: nsp7, nsp8, nsp10 and nsp14): 12200 nM

Cc1cc(O)n2nc(-c3ccsc3-n3c(C)ccc3C)cc2n1
IC50 (rep nsp13 helicase; helicase ATPase activity, inhibitor, Kinase-Glo luminescence): 57000 nM

CN(C)c1ccc(N(Cc2cc(Cl)cs2)C(=O)Cc2cncc3ccccc23)cc1
Ki (rep main protease; enzyme activity, inhibitor): 2100 nM

Nc1ccn([C@@H]2O[C@H](COP(=O)(O)OP(=O)(O)OP(=O)(O)O)[C@@H](O)[C@H]2O)c(=O)n1
Kd (Replicase polyprotein 1ab, nsp12 with nsp7/nsp8 (rep, Severe acute respiratory syndrome coronavirus 2, UniProt P0DTD1); nucleotide binding, substrate; templating base G): 58700 nM and 59000 nM

CC(=O)O[C@@H]1[C@@H](O)[C@H](O[C@H]2CC[C@]34C[C@]35CC[C@]3(C)[C@@H]([C@@]6(C)CC[C@@H](C(C)(C)O)O6)[C@@H](O)C[C@@]3(C)[C@@H]5C[C@H](O[C@@H]3O[C@H](CO)[C@@H](O)[C@H](O)[C@H]3O)[C@H]4C2(C)C)OC[C@H]1O
Kd (Spike glycoprotein; biolayer interferometry): 168000 nM

CSc1ccc(N(Cc2cc(Cl)cs2)C(=O)Cc2cncc3ccccc23)cc1
Ki (rep main protease; enzyme activity, inhibitor): 1900 nM

Cc1ccc(C(=O)O)cc1-c1ccc(/C=C2\SC(=O)N(CC(=O)Nc3ccccc3)C2=O)o1
IC50 (rep nsp13 helicase; helicase ATPase activity, inhibitor, Kinase-Glo luminescence; 60 min, added: 2.5 µM ATP): 11000 nM

COc1ccc(O)c(C=NN2C(=O)c3ccccc3NC2c2cc(OC)ccc2O)c1 (stereo not drawn)
EC50 (rep main protease; viral replication, GFP reporter; HEK293T, SARS-CoV-2; 48 h): 6500 nM

CC1=C(C#N)C(=O)N(C2CCS(=O)(=O)C2)C(=O)/C1=C\c1ccco1 (stereo not drawn)
IC50 (rep nsp13 helicase; helicase ATPase activity, inhibitor, Kinase-Glo luminescence): 74000 nM

O=C(O)c1ccccc1-c1c2cc(Br)c(=O)cc-2oc2[c]([Hg+])c(O)c(Br)cc12
Kd (rep main protease; binding, SPR; second site heterogeneous model): 25100 ± 150 nM
